Results collected from several papers.
A part holds a random share of what one study measured. Positions count from the first letter of the parent shown.

Block 1 — technique: DHFR PCA, deep sequencing; matrix: yeast; added: (+)-ABA 0.39 µM; baseline: wild-type fitted maximum; direction: higher = stronger binding
Target: ABI1, truncated, D143A, DHFR fusion (Arabidopsis thaliana)
Setting: methotrexate growth selection, single substitutions
Starting sequence: PYL1, truncated, DHFR fusion (Arabidopsis thaliana); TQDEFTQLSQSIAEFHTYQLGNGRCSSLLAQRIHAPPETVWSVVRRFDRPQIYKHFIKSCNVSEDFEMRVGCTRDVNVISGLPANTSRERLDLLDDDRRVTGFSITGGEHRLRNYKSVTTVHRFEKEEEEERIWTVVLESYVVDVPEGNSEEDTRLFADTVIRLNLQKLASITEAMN; partner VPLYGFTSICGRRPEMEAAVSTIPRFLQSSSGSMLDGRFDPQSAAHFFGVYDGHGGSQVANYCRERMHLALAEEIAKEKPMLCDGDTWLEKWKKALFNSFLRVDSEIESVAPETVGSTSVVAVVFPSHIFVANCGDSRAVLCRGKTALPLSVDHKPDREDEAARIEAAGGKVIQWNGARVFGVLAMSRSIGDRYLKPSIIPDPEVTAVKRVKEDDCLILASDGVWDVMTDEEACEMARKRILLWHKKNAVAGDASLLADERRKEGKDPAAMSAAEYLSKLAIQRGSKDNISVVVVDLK
| Substitution | relative binding score [%] |
| --- | --- |
| A175P | 1.34 |
| P37E | -6.06 |
| H110Q | 29.9 |
| R113Q | 67.3 |
| V43Y | 5.42 |
| Q10P | 47.2 |
| R74C | -16.4 |
| V70E | 16.4 |
| D75K | 30.9 |
| K116R | 51.2 |
| Q51R | 15.3 |
| W134R | 3.91 |
| P37V | 25.4 |
| V137D | 2.96 |
| V161L | 70.4 |
| R69K | 67 |
| K168R | 38.1 |
| P37W | -11.3 |

Block 2 — technique: RNA Bind-n-Seq; molecule type: RNA; matrix: in vitro; tested at: 365 nM; baseline: no-protein control; direction: higher = stronger binding
Target: RNA binding protein fox-1 homolog 2, RRM domain, GST-SBP tag (RBFOX2, Homo sapiens, UniProt O43251-10, residues 100-194)
Setting: natural RNA segment, single round, ends assumed
Constant ends, left off below: GGGAGUUCUACAGUCCGACGAUC … UGGAAUUCUCGGGUGCCAA
Target sequence (chain): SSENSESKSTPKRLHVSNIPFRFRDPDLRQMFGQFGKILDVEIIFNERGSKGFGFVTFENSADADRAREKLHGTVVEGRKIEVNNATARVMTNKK
| Strand | RBNS enrichment (R) |
| --- | --- |
| CUUCCUCUGCUAAAUUGAUGUUGAUGCAAUCCUUACAAUGAUUGCUUUUAAAAUUUUAAGAUAGGAAAGAAAUCUAUAGAAAGUGUUCUGUUACAAAAUGUAACUGUUAC | 0.44 |
| CAGCUGGUGACUUCCCUUGUAGAGUGUUUGCGUAGUGGAGUGGCUGUGGCUCACCACCCCCUUUCCCAAGUGCUUUAAUGAAGACACCUCCCUUGUGUUUCAACCAAUCA | 0.547 |
| CUUGACCUGACACUUGCAUUUUCUAGGCCACUCUUUGGGGUGGCUGAGAAUCAUGACAGACCCUCUGCCAGUCUCUAGUUUCUCUGGGUCAGGUUUCUGAGUACUGGCAU | 0.461 |
| CGGGCUCCACGCUUUUGCUGUCCUUGACACCUCUCGUUGGGGCUUCUGCAGGCAUCUCUGUCUGAGAGCAGUGGGGGCUGCCCUCUGUAGAGCUGUGAGAGCAGUGGGGG | 0.486 |
| AUUAUCACGUCUGACAAAUGUGUAUGUGUGGUUUCAGUUCUGUGUACAUUUUAAAGGAUAAUGGUGAACAUUUUAAUGGGUUUCCCUUGCCCUUUCCAUAUUUAACCUAU | 0.481 |
| CUGUGGCUGAAUCAGGUGUCCAGGUGAAGACAGGCCCUGUCCUGGAACCUGGAAUCACACAUACCUCGUGGUACUUUUGCCUUAGAUUUUACACUCUCAACAGCCAAGCA | 0.996 |
| AGCAUUCUGGCAGCUUCCAAGUCAGCCAGCUGCCCUAAAUAACCCUUCAACAUUUCUUCACUUUUGCAAGGUUCCACAGACUAAGACAUUGGGUCUAUUCCAGCUCAUUC | 1.12 |
| GCAAGGGGAGUGACUGCCUCCCUUGGGCCAAGUUCCCCAGCCUCAGCCUGCACAUCUCUCUCUUUGGCCUGCUGGAGGGUACUCUGAUUCUCUGGCUGGCCGCCUGCGUC | 0.608 |
| AGAUUACUUUUUCAACUGUAAAUAAUGUACAUUUAAUGUCACAAGAAAAAAAUGUCUUCUGCAAAUUUUCUAGUAUAACAGAAAUUUUUGUAGAUGAAAAAAAUCAUUAU | 0.599 |
| CGCCUCGCAGAUUUGCCAAGUAUCCGCUUCCUGUGGAAGCAAGACCAAAAGGAAAUCAACUGAGUGGGUGUUUGGAAGAGGAAGGAGCAACUCUCGGGCAGCCUGCCCAA | 0.751 |
| GAUUAGAAGCUAGUAUCACCCAUUGGGAUUGGCAAUGCCUUCAAAGGCUCCUAGUCAAAUGAUCCAAACCUUUAACAUCGUUUCUGAUGGUACCCAAGUUCACAUUUUAU | 0.295 |
| GGGUGCCAGUUUUUUAAUCACUAUAGCCCUUGGGAAGGCUUGGGCUAUUUACUGGGCGGUAAAAGGGGUUUACCUCUCACCUUUGGUCAUUCCUAAGUUCCUAUCUCCUU | 0.36 |

Block 3 — target: UBE2G1 UBC core domain (UniProt P62253); technique: yeast two-hybrid; matrix: yeast; setting: mostly zero background; baseline: not given; direction: higher = stronger interaction
B1: PRKN RING domain (UniProt O60260); chain LIATNSRNITCITCTDVRSPVLVFQCNSRHVICLDCFHLYCVTRLNDRQFVHDPQLGYSLPCVAGCPNSLIKELHH
B2: TRIM48 RING domain (UniProt Q8IWZ4); chain ISQVFQRELTCPICMNYFIDPVTIDCGHSFCRPCFYLNWQDIPILTQCFECIKTIQQRNLKT
B3: RNF135 RING domain (UniProt Q8IUD6); chain PVWLAEDDLGCIICQGLLDWPATLPCGHSFCRHCLEALWGARDARRWACPTCRQGAAQQPHLR
B4: Ltn1 RING domain (UniProt Q6A009); chain VDKRFEGVEDCMICFSVIHGFNYSLPKKACRTCKKKFHSACLYKWFTSSNKSTCPLCRETFF
B5: DTX1 RING domain (UniProt Q86Y01); chain QKVKNPPDEDCTICMERLVTASGYEGVLRHKGVRPELVGRLGRCGHMYHLLCLVAMYSNGNKDGSLQCPTCKAIYGEKTGTQ
B6: ZNRF3 RING domain (UniProt Q9ULT6); chain DTLSSSSTSDCAICLEKYIDGEELRVIPCTHRFHRKCVDPWLLQHHTCPHCRHNIIEQKGNP
B7: RNF24 RING domain (UniProt Q9Y225); chain KVKELNLHELCAVCLEDFKPRDELGICPCKHAFHRKCLIKWLEVRKVCPLCNMPVLQLAQLH
B8: TRIM22 RING domain (UniProt Q8IYM9); chain KEVKMSPQEGQKRDVCEHHGKKLQIFCKEDGKVICWVCELSQEHQGHQTFRINEVVKECQEK
B9: RNF181 RING domain (UniProt Q9P0P0); chain VIRGSQAELKCPVCLLEFEEEETAIEMPCHHLFHSSCILPWLSKTNSCPLCRYELPTDDDTY
Construct (chain): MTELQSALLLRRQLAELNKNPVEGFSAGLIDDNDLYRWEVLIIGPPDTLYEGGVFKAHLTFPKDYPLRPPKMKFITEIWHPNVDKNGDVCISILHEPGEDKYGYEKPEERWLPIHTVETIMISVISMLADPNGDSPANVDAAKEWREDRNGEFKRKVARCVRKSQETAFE
| Sequence | lacZ reporter activity |
| --- | --- |
| B1 (PRKN RING domain) | 0 |
| KEQLEKHNDICAICYQDMKSAVITPCSHFFHAGCLKKWLYVQETCPLCHCHLKNSSQLP (RNF145 RING domain (UniProt Q96MT1)) | 0 |
| B2 (TRIM48 RING domain) | 0 |
| B3 (RNF135 RING domain) | 0 |
| B4 (Ltn1 RING domain) | 0 |
| ALDRLEKLLRCSRCTNILREPVCLGGCEHIFCSNCVSDCIGTGCPVCYTPAWIQDLKI (BARD1 RING domain (UniProt Q99728)) | 0 |
| B5 (DTX1 RING domain) | 0 |
| B6 (ZNRF3 RING domain) | 0 |
| B7 (RNF24 RING domain) | 0 |
| B8 (TRIM22 RING domain) | 0 |
| MDDQGCPRCKTTKYRNPSLKLMVNVCGHTLCESCVDLLFVRGAGNCPECGTPLRKSNFRV (MNAT1 RING domain (UniProt P51948)) | 0 |
| NTAPSLTVPECAICLQTCVHPVSLPCKHVFCYLCVKGASWLGKRCALCRQEIPEDFLDK (RNF146 RING domain (UniProt Q9NTX7)) | 0 |
| QLRRLQEERTCKVCLDRAVSIVFVPCGHLVCAECAPGLQLCPICRAPVRSRVRTF (BIRC7 RING domain (UniProt Q96CA5)) | 0 |
| KITELNPHLMCVLCGGYFIDATTIIECLHSFCKTCIVRYLETSKYCPICDVQVHKTRPLL (BMI1 RING domain (UniProt P35226)) | 0 |
| B9 (RNF181 RING domain) | 0 |

Block 4 — technique: RNA Bind-n-Seq; molecule type: RNA; matrix: in vitro; tested at: not given; setting: 4-mer, random 30-nt RNA, single round; added: RocA, ADP, phosphate; baseline: input library; direction: higher = stronger binding
Target: Eukaryotic initiation factor 4A-I (EIF4A1, Homo sapiens, UniProt P60842, residues 1-406, full length assumed)
UniProt P60842, sequence (whole entry, looked up): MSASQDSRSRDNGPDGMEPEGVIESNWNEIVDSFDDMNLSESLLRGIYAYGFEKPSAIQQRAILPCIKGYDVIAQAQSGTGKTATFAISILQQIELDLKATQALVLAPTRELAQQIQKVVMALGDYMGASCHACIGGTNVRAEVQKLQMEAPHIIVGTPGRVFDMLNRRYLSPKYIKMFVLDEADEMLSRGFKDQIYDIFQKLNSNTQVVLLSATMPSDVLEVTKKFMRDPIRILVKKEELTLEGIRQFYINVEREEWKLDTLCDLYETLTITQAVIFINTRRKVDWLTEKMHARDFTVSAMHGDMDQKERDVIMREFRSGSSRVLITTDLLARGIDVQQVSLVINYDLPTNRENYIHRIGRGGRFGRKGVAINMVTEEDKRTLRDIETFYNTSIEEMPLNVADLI
| Strand | 4-mer enrichment [fold] |
| --- | --- |
| CCCC | 0.67 |
| GGUG | 1.19 |
| CUCC | 0.499 |
| ACCU | 0.588 |
| AAUU | 1.05 |
| GAUU | 0.986 |
| UCAA | 0.716 |
| AAAA | 1.34 |
| UCUC | 0.455 |
| UCGA | 1.02 |
| AACA | 0.852 |
| UGUC | 0.69 |
| UCGG | 0.833 |
| CAAA | 0.864 |
| CAAG | 0.998 |
| AGUU | 1.68 |
| CCCA | 0.644 |
| GGGG | 1.22 |
| GAUG | 1.09 |
| GUUA | 1.09 |
| GAGC | 2.34 |
| UACA | 0.738 |
| ACGC | 0.627 |
| UUCA | 0.637 |
| CACC | 0.621 |

Block 5 — technique: protein binding microarray; molecule type: double-stranded DNA, one strand shown; matrix: in vitro; tested at: not given; baseline: not given; direction: higher = stronger binding
Target: Histone acetyltransferase KAT6A, winged helix 1, GST fusion (KAT6A, Homo sapiens, UniProt Q92794, residues 1-85)
Setting: 8-mer, flanks averaged, mean of 2 arrays, mostly near background
Target sequence (chain): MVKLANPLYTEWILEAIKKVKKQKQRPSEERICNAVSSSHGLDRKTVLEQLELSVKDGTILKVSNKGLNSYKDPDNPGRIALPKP
| Strand | E-score |
| --- | --- |
| TGCGCGAA | 0.293 |
| CTGCCGAA | 0.0635 |
| ACGGTCTC | 0.229 |
| CGCGCTAG | 0.355 |
| CCAAGACC | -0.136 |
| CAGCCCTC | -0.194 |
| ACTCGCCT | 0.0282 |
| AGATTGAG | -0.143 |
| CAGCACAC | -0.116 |
| CAGCCCGG | 0.339 |
| CTTTTCGA | -0.215 |
| AATCGGCC | 0.201 |
| AAGTTATT | -0.134 |
| ATGCCTGG | -0.281 |
| TATTGCCA | -0.117 |
| TCATTCGA | -0.265 |
| CACAGCGA | 0.19 |
| CCATCGAG | -0.136 |
| CCAGGCGA | -0.201 |
| ATCGCTTA | 0.0228 |
| CCACGTAC | -0.144 |
| ATCGCTGG | 0.0115 |
| GTGTCTTA | -0.219 |
| AGTTCGAT | -0.267 |

Block 6 — target: CCNB1, cyclin fold, Cln2 fusion (human); technique: yeast growth competition, sequencing; matrix: yeast; setting: weak parent motif; baseline: not given; direction: higher = stronger binding
Starting sequence: CDAN1 docking peptide (human); RGARSQLFPPTEA
| Substitution | normalised enrichment score |
| --- | --- |
| RGAASQLFPPTEA [R4A] | 0.126 |
| RGARSQLFAPTEA [P9A] | 0.46 |
| RGARSQLFPPAEA [T11A] | 9.91e-05 |
| RGARSQLFPPTAA [E12A] | 0.283 |
| AGARSQLFPPTEA [R1A] | 0.0609 |
| RAARSQLFPPTEA [G2A] | 0.15 |
